Experimental data from different studies.
Parts stem from different laboratories: compare values within a part only.

Series 1
Cell line: HEK-293T-ACE2
Concentration: concentration not given
Baseline: vehicle
Compound | cell number [%]
COc1cc2c(cc1OC)CC(=O)N(CCCN(C)C[C@H]1Cc3cc(OC)c(OC)cc31)CC2.Cl | 101
CN1CCc2nc(C(=O)N[C@@H]3C[C@@H](C(=O)N(C)C)CC[C@@H]3NC(=O)C(=O)Nc3ccc(Cl)cn3)sc2C1.Cc1ccc(S(=O)(=O)O)cc1.O | 103
OCCN(CCO)c1nc(N2CCCCC2)c2nc(N(CCO)CCO)nc(N3CCCCC3)c2n1 | 108
Cl.Cn1c(CCCC(=O)O)nc2cc(N(CCCl)CCCl)ccc21 | 103

Series 2
Target: Ras GTPase-activating protein-binding protein 1, full length (G3BP1, Homo sapiens, UniProt Q13283)
Chain of UniProt Q13283 (whole entry, looked up): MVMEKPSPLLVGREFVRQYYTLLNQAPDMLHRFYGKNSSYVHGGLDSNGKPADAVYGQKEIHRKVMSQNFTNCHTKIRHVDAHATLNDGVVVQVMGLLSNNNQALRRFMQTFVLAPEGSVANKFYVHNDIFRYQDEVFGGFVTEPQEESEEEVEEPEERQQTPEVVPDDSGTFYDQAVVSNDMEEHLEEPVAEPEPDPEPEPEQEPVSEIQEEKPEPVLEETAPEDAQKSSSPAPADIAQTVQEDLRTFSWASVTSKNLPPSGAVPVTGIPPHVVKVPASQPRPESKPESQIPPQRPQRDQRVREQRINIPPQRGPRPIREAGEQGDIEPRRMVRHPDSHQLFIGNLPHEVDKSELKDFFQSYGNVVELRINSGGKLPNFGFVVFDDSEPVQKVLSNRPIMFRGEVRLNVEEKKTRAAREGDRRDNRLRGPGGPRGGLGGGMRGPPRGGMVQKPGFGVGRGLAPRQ
Method: RNA Bind-n-Seq
Form: RNA
Medium: in vitro
Concentration: 200 nM
Notes: whole 134-nt RNA, ends assumed
Together with: 150 mM KCl
Baseline: input library
Reading: higher = stronger binding
Constant ends, left off below: GGGAGUUCUACAGUCCGACGAUC … UGGAAUUCUCGGGUGUCAAGG
Oligonucleotide | log2 enrichment
CUCAAGUCCUGUGCUACACAUCGUAUGUACCGAAUCGGAAAAAAAGGUGGUGGAAAGUAUUAUGUUACGCCGUUCGGAUCUGCACUUCCA | -0.365
UUGCAUUUCGAACGCGUUCUAAGAUGCCCCUGAAAGAUGUUCCCCUGGGCCAAUUAGAGGCAGAGCUCCAAGCUCCAGACAUCACUCCAG | 0.634
CAAGUCCUGUGCUACACAUCGUAUGUACCGAAUCGGUGGUUUUUGGAAAAAAAGGAAAGUAUUAUGUUACGCCGUUCGGAUCUGCACUUC | -0.677
CACAGACAACACGCAGCCACACAGACACAGAGGGAAGGGGUUGGGAUGGGGACAGGGUGCACAGCAGGGCGGGGUAGGACCCCAGCCCCU | 1.59
AAGUCCUGUGCUACACAUCGUAUGUACCGAAUCGGGUUUGGGUGGGAAAAAAAGGGAAAGUAUUAUGUUACGCCGUUCGGAUCUGCACUU | 0.0395
ACCAUGUAGGUGGGCAUCUUUGGGAAGUGGGGCAAGGGGGGGAUAGGGAGGGGGGUAACACUUUGGGAACAGGUGGUCCCAGGUCGUUUC | 1.06
GCAGGAAGUAAAAACAAAUGGAAAUGCUUCGGAUAGUGGCAGGGGUGGGGGUUGCUAAGGGAAGGGUGGGAUGGGAGUGGGUAAAGAGUU | 1.06
CCUGUGCUACACAUCGUAUGUACCGAAUCGGGGUUUUUUGGGGUUUUUUGGGGUUUUUUGGAAAGUAUUAUGUUACGCCGUUCGGAUCUG | -0.242

Series 3
Target: Replicase polyprotein 1ab, main protease (rep, Severe acute respiratory syndrome coronavirus 2, UniProt P0DTD1)
Observed: enzyme activity
Mode: inhibitor
Concentration: 20 µM
Notes: hit confirmation
Structure (SMILES) | inhibition [%]
Cc1cc(O)c2c(c1)C(=O)c1cccc(O)c1C2=O | 22.5
CC(=O)OCC1=C(C(=O)O)N2C(=O)[C@@H](NC(=O)Cc3cccs3)[C@H]2SC1 | 4.1
C=C1C(=O)O[C@@H]2[C@H]3O[C@]3(C)CC/C=C(\C)CC[C@@H]12 | 1.5

Series 4
Target: Replicase polyprotein 1ab, nsp13 helicase (rep, Severe acute respiratory syndrome coronavirus 2, UniProt P0DTD1)
Mode: inhibitor
Concentration: 20 µM
Structure (SMILES) | inhibition
NS(=O)(=O)c1cc2c(cc1Cl)NC(C1CC3C=CC1C3)NS2(=O)=O (centres unmarked) | 6.03%
O=C1N[C@H](C(=O)O)CS1 | 9.75%
COc1ccsc1CNCC[C@@]1(c2ccccn2)CCOC2(CCCC2)C1 | 2.29%
CN(CCOc1ccc(C[C@H](Nc2ccccc2C(=O)c2ccccc2)C(=O)O)cc1)c1ccccn1 | 16.2%
CC(C)[C@H]1CC[C@H](C(=O)N[C@H](Cc2ccccc2)C(=O)O)CC1 | 3.7%
CCCCC[C@H](O)/C=C/[C@@H]1[C@@H](C/C=C\CCCC(=O)O)[C@H](O)C[C@H]1O | 11.9%
CCN(CC)CCCC(C)Nc1nc(C)cc(Nc2ccc3nc(C)cc(N)c3c2)n1 (centres unmarked) | 20.2%
CC(C)C[C@H](NC(=O)[C@H](CCc1ccccc1)NC(=O)CN1CCOCC1)C(=O)N[C@@H](Cc1ccccc1)C(=O)N[C@@H](CC(C)C)C(=O)[C@@]1(C)CO1 | 5.65%
Cc1cc(C)c(Nc2ccnc(Nc3ccc(C#N)cc3)n2)c(C)c1 | 8.09%
CC1(C)Oc2ccc(C#N)cc2[C@@H](N2CCCC2=O)[C@@H]1O | -0.85%
CC(C)(C#N)c1ccc(N2C(=O)OCc3cnc4ccc(-c5cnc6ccccc6c5)cc4c32)cc1 | -0.09%
O=C1N=C(N2CCOCC2)CN1c1ccc(Cl)cc1 | 6.76%
CC(=O)Nc1cccc(Nc2ncnc(N3CCC(OCc4ccc(OC(F)(F)F)cc4)CC3)n2)c1C | 8.85%
CC(=O)c1ccc(S(=O)(=O)NC(=O)NC2CCCCC2)cc1 | 4.55%
O=[N+]([O-])c1ccc2nc(COCc3nc4ccc([N+](=O)[O-])cc4[nH]3)[nH]c2c1 | 5.4%
CCc1cc(-c2n[nH]c(C)c2-c2ccc3c(c2)OCCO3)c(O)cc1O | 2.47%
CC1CCc2c(N3CCC(O)CC3)c(F)cc3c(=O)c(C(=O)O)cn1c23 (centres unmarked) | 3%
CC(=O)O[C@H]1CC[C@@]2(C)C(=CC(=O)[C@@H]3[C@@H]2CC[C@]2(C)C(=O)CC[C@@H]32)C1 | 0.81%

Series 5
Target: RNA binding protein fox-1 homolog 2, RRM domain, GST-SBP tag (RBFOX2, Homo sapiens, UniProt O43251-10, residues 100-194)
Method: RNA Bind-n-Seq
Form: RNA
Medium: in vitro
Concentration: 365 nM
Notes: natural RNA segment, single round, ends assumed
Baseline: no-protein control
Reading: higher = stronger binding
Constant ends, left off below: GGGAGUUCUACAGUCCGACGAUC … UGGAAUUCUCGGGUGCCAA
Residues (chain): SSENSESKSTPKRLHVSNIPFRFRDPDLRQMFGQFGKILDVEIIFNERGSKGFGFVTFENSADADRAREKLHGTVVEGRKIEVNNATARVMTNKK
Oligonucleotide | RBNS enrichment (R)
CCUGCUUCCUGGUCCAGAGCCUCCCUCCAGUGACUGUGGAGCCUGAGAAGGCCCCCGGGCCCCAGCAUGGGCCCCGAGCCUUGGAGGAGCACUGGCAGUUGGUGGCAGUG | 0.339
GAGAUGUGAGCCUUGUGCAUGUGGGGGAGGAGGGAGAGAGAUGUACUUUUUAAAUCAUGUUCCCCCUAAACAUGGCUGUUAACCCACUGCAUGCAGAAACUUGGAUGUCA | 28.8
UCUCCAUGAAACUCUGUGGUUUCAUCAUUCCUUCUUAGUUGACCUGCACAGCUUGGUUAGACCUAGAUUUAACCCUAAGGUAAGAUGCUGGGGUAUAGAACGCUAAGAAU | 0.245
UUUGAGCACAUGUUAAUUUUUUUCCCUCUUUCCCCACUUUUAUUUUUUUAAAUAAGGGAUAACAUAUUCUUUAUAGAAUAGUGCUUGUUCUGGAAGAGAUUCAGGUGAAA | 0.416
CGAAGAAAAAGAAAAUAAAAUGUAUAGGCAGGGUUCCUUCAAUUGGCAUUUUCCCCAGAAUUGUGAGCCAAAGCCUAUAGUAAUUGCAGACAGCAAAUGAUUCCGGAUCU | 0.414
UUAUUAAACAUUUUGAGAUUUAGAUAAACUACAUUUUAACUGAAUGUCUAAAGUGAUUAUCUUUUUUCCCCCCAAGUUAGUCUUAAAUCUUUUGGGUUUGAAUGAAGGUU | 0.653
GCUGGUGUGUAUUUUUGUAAAUGUUAUGCACUCUGAAAGGAAAACACACAAAAGAAGAGAUUUUGUCGUUUUUUGUUUUGCCAAGGCCAGUGUUGCUGCCUAAAAAAAAA | 1.13
UGAUGAAAAUAAAUAGAGUGUAAAUUCUUUUUAAUGCUUUAGUGAUUAAAUGUUUUAGUAUUUUGAACUGAAAUGGACAAAAAAAGAAAAAGGAAAAAAAAAGCAGGUUU | 1.79

For quick reference, copied from above (series 4):
Structure (SMILES) | inhibition
CC(=O)c1ccc(S(=O)(=O)NC(=O)NC2CCCCC2)cc1 | 4.55%
O=[N+]([O-])c1ccc2nc(COCc3nc4ccc([N+](=O)[O-])cc4[nH]3)[nH]c2c1 | 5.4%
CCc1cc(-c2n[nH]c(C)c2-c2ccc3c(c2)OCCO3)c(O)cc1O | 2.47%
CC1CCc2c(N3CCC(O)CC3)c(F)cc3c(=O)c(C(=O)O)cn1c23 (centres unmarked) | 3%
